Published values collected from several papers.
± marks the error that the study gave.
Target: Aurora kinase B (AURKB, Homo sapiens, UniProt Q96GD4)
UniProt Q96GD4, sequence (whole entry, looked up): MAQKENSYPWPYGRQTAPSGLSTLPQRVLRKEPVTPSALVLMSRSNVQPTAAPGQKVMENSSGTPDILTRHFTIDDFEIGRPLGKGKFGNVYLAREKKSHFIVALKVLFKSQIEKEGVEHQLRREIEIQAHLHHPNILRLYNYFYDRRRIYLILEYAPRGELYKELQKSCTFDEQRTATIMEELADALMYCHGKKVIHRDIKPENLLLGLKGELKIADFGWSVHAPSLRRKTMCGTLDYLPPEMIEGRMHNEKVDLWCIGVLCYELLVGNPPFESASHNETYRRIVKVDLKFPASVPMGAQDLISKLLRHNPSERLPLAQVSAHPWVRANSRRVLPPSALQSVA

COCCNc1nc2ccc(C#CC3(O)CCCCC3)cc2n1-c1ccnc(N)n1
remaining kinase activity (enzyme activity, inhibitor, Z'-LYTE; 1 µM; reference: no-inhibitor control): 4.7%

C=CC(=O)N1CCC[C@@H](n2nc(-c3ccc(Oc4ccccc4)cc3)c3c(N)ncnc32)C1
remaining activity (10 µM): 130%

Cc1cc(-c2ccnc3[nH]cc(F)c23)cc(F)c1[C@@]1(O)[C@H](C)CN(C(=O)CN)C[C@@H]1C
probe labelling inhibition (ATP/ADP probe binding, KiNativ; HEK293T lysate; 1 µM, Lys1 peptide): -13.9%

C=CC(=O)N1CCC[C@@H](n2nc(-c3ccc(Oc4ccccc4)cc3)c3c(N)ncnc32)C1
remaining activity (kinase activity, inhibitor, HotSpot radiometric; 100 nM, added: ATP 10 µM): 78.2 ± 0.9%

Cc1cc(-c2ccnc3[nH]cc(F)c23)cc(F)c1[C@@]1(O)[C@H](C)CN(C2CCS(=O)(=O)CC2)C[C@@H]1C
probe labelling inhibition (ATP/ADP probe binding, KiNativ; HEK293T lysate; 10 µM, Lys1 peptide): 67.2%

Cc1ncsc1-c1ccc(CNC(=O)[C@@H]2C[C@@H](O)CN2C(=O)[C@@H](NC(=O)CCCCCCCCC(=O)N(CCO)CCCOc2ccc3c(Nc4cc(CC(=O)Nc5cccc(F)c5)[nH]n4)ncnc3c2)C(C)(C)C)cc1
degradation (degrader, western blot; PC-3 cells; 1 µM, 24 h): > 70%

COc1cc(-c2cncc3c2CN(C)Cc2cc(N4CCNCC4)ccc2-3)cc(OC)c1OC
remaining activity (kinase activity; 1 µM, human enzyme, added: ATP 10 µM; reference: DMSO control): 94%

COc1ccc(F)cc1C(=O)NCc1ccc(-c2nn([C@@H](C)C(F)(F)F)c(N)c2C(N)=O)cc1
remaining activity (kinase activity, inhibitor, HotSpot radiometric; 100 nM, added: ATP 10 µM): 85.9 ± 2.2%

O=C1NC(=O)/C(=C/c2ccc(-c3ccc(F)cc3O)o2)S1
remaining activity (enzyme activity; 10 µM): 71%

Cc1ncsc1-c1ccc([C@H](C)NC(=O)[C@@H]2C[C@@H](O)CN2C(=O)[C@@H](NC(=O)CCCCCCCCC(=O)N(CCO)CCCOc2ccc3c(Nc4cc(CC(=O)Nc5cccc(F)c5)[nH]n4)ncnc3c2)C(C)(C)C)cc1
degradation (degrader, Western blot; K562; 1 µM, 24 h): > 60%

C=CC(=O)N1CCC([C@@H]2CCNc3c(C(N)=O)c(-c4ccc(Oc5ccccc5)cc4)nn32)CC1
remaining activity (kinase activity, inhibitor, HotSpot radiometric; 100 nM, added: ATP 10 µM): 101 ± 6.2%

For quick reference, copied from above:
Cc1ncsc1-c1ccc(CNC(=O)[C@@H]2C[C@@H](O)CN2C(=O)[C@@H](NC(=O)CCCCCCCCC(=O)N(CCO)CCCOc2ccc3c(Nc4cc(CC(=O)Nc5cccc(F)c5)[nH]n4)ncnc3c2)C(C)(C)C)cc1
degradation (degrader, western blot; PC-3 cells; 1 µM, 24 h): > 70%
